Results gathered from unrelated publications.
Every numbered part comes from another study and shows a few of its results, in no order.

Sample 1
Target: Interferon regulatory factor 3, full length, phosphomimetic (IRF3, Homo sapiens, UniProt Q14653, residues 1-427, S386D/S396D/S398D/S402D/T404D/S405D)
Chain of UniProt Q14653 (whole entry, unmodified, looked up): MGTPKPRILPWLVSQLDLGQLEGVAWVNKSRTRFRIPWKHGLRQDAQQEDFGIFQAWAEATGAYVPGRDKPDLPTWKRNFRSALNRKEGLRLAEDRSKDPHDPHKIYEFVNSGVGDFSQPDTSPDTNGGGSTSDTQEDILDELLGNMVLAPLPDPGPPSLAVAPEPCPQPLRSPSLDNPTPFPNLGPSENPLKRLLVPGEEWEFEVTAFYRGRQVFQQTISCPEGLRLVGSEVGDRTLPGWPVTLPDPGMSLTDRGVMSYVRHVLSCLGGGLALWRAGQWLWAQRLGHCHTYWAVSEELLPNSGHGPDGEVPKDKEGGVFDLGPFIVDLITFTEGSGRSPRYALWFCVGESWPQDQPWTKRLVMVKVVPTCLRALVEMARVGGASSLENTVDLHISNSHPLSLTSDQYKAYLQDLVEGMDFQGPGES
Technique: protein-binding microarray
Form: double-stranded DNA, one strand shown
Matrix: in vitro
Tested at: 2540 nM top
Setting: 60-bp whole probe
Added: salmon DNA 0.4 mg/ml
Relative to: random background probes
Direction: higher = stronger binding
All sequences stand within: GCCTAGCAC … GTCTTGATTCGCTTGACGCTGCTG
For `TTAGGACTGCTTACCCTTTAGTGCTAG`, “fitted relative affinity” read 0.846 z-score.
For `CTTGCTCTTGTTTTCACAGGGTGCTAG`, “fitted relative affinity” read 0.783 z-score.
For `GACGATTTCGGGTATGGAGACGTGCTA`, “fitted relative affinity” read 1.72 z-score.
`GAGACTTTGCTCTGTGCATAGGTGCTA`: “fitted relative affinity” -0.565 z-score.
`CTTGATTTTGGTCTTTCTGTGTGCTAG` — result for “fitted relative affinity”: 0.47 z-score.
`TTAAGTATCGGTATCGGTTAGTGCTAG`: “fitted relative affinity” 5.65 z-score.
For `TTTGGTTTCGGTATCGGTTAGTGCTAG`, “fitted relative affinity” read 9.46 z-score.
For `CTTTATTTAAGCTCCTATCTTGTGCTA`, “fitted relative affinity” read 1.64 z-score.
Under “fitted relative affinity”, `GACGGCATCGGGACTGGGGACGTGCTA` is recorded as -1.06 z-score.
`CCACACACCATTCTCGGGACGTGCTAG` — result for “fitted relative affinity”: 2.01 z-score.
For `TTAGGACTGAGTATCGATTAGTGCTAG`, “fitted relative affinity” read 0.139 z-score.
`TTAGGTATCCCTCTCCTTTAGTGCTAG`: “fitted relative affinity” 5.25 z-score.
For `GAAGGTATCGACTTTCGGGACGTGCTA`, “fitted relative affinity” read 1.29 z-score.
`CCATTCTTGGGACTCACCTGGTGCTAG`: “fitted relative affinity” 1.98 z-score.
Under “fitted relative affinity”, `ATAGGACTGGACTTTCGGTTAGTGCTA` is recorded as 1.25 z-score.
For `TAGTTTTCAATTTTTGCATCGTGCTAG`, “fitted relative affinity” read 2.39 z-score.
`GGCGATTTCAGTCTCGAGACGTGCTAG` — result for “fitted relative affinity”: 2.19 z-score.
For `CTAGGTATCGGTTTCGGTTAGTGCTAG`, “fitted relative affinity” read 8.81 z-score.
`GACGGTTTCGGGTATCGGGAGGTGCTA` — result for “fitted relative affinity”: 4.52 z-score.
`TAAGGTTTCGGTTTCGGTTAGTGCTAG`: “fitted relative affinity” 12.7 z-score.
Under “fitted relative affinity”, `TTAGGTCTCGGACTGGATTAGTGCTAG` is recorded as -0.274 z-score.
Under “fitted relative affinity”, `GACGATTTCAGACGGGAGACGTGCTAG` is recorded as 0.517 z-score.
`TCATCTTTCCTCACCATACTGTGCTAG`: “fitted relative affinity” 2.23 z-score.

Sample 2
Target: Histone acetyltransferase KAT6A, both winged helices, GST fusion (KAT6A, Homo sapiens, UniProt Q92794, residues 1-181)
Technique: protein binding microarray
Form: double-stranded DNA, one strand shown
Matrix: in vitro
Tested at: not given
Setting: 8-mer, flanks averaged, mean of 2 arrays, mostly near background
Relative to: not given
Direction: higher = stronger binding
Residues (chain): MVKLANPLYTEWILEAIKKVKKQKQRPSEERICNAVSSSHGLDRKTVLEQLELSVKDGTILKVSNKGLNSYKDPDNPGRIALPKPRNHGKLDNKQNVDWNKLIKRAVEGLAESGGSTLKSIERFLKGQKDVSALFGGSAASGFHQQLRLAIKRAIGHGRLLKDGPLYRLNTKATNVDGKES
`CTCTACGA` has an E-score of -0.0322.
With `ACCAAATG` the E-score was -0.153.
With `GACCGGTA` the E-score was 0.13.
For `ACAGACTA`, the E-score was -0.139.
With `CATGGGCC` the E-score was -0.0629.
The E-score of `AAACTCAG` is reported as -0.168.
`GTAGAAAC` gave an E-score of -0.0107.
With `AGGAAAAC` the E-score was -0.0127.
The E-score of `CGGAACAG` is reported as 0.192.
`ATTGCTGA` has an E-score of -0.14.
The E-score of `GTTAAGTA` is reported as -0.165.
`CGGAGAGA` has an E-score of 0.0796.
`AGGTACCG` has an E-score of 0.13.
With `GGCCATGA` the E-score was -0.108.
`ACGGCGAA` gave an E-score of 0.327.
For `ATACACTA`, the E-score was -0.17.
`GTATATAA` gave an E-score of -0.091.
With `CACCCGGG` the E-score was 0.226.
`ATGACGCG` has an E-score of 0.322.
`GCCAACAA` has an E-score of -0.17.
For `AACAACCC`, the E-score was 0.00061.
The E-score of `TCCGGTAA` is reported as 0.0807.
`AAATGTAA` gave an E-score of -0.0504.
`ACATCTAC` has an E-score of -0.0598.
`GCTTTTCC` has an E-score of 0.0835.

Sample 3
Target: RING finger protein unkempt homolog, zinc fingers 1-6, GST-SBP tag (UNK, Homo sapiens, UniProt Q9C0B0, residues 30-357)
Technique: RNA Bind-n-Seq
Form: RNA
Matrix: in vitro
Tested at: not given
Setting: RNA with constant flanks, human-mouse chimeric sites, ends assumed
Relative to: input RNA pool
Direction: higher = stronger binding
All sequences stand within: GGGAGUUCUACAGUCCGACGAUC … CAACAGAGGAUUGAGCAUCA
Target sequence (chain): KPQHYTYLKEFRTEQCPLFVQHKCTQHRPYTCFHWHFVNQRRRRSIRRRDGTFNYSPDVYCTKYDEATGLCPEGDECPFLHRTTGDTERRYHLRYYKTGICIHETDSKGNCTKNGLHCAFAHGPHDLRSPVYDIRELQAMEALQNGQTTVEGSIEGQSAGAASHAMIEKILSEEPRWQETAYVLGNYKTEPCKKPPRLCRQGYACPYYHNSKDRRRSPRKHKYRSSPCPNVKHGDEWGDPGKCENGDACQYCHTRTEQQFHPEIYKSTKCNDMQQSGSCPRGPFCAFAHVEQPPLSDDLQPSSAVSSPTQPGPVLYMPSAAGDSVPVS
`AAAGAAAAUGGAGAUGUAAAGAUUUUGCUGAAAAGUGGGAAGGAGAAACCAAAAACAAAUAUAGAAGACUUACAAAUUAAAAAGGUAAAGAAGAAAAAGAAAAAGAAACACAAAGAGAAU` has a bound/input enrichment of 13 ratio.
The bound/input enrichment of `GGGACUGAUUCAUCCCAAGGACAGGCAACCCCAUUUGAUGCCUGGACUGAUGACAGUAUGGAAGGGCCUAGUCAAAAUGUUGAAGCUGAGUCAAUUCAGGAUGCCAUGAGUAUGGAAGAG` is reported as 0.406 ratio.
`UGUGCAUUAUGAUGCUUAGAUGGUUUUUGCAAAAGCAGAAAUCGCUGCAAGGUAAUCACAAUAGAUACAAGCGGUAUUUUAAACCUUUGAAAUAAAUGGAUGUAACUGUACCUUGGUACA` gave a bound/input enrichment of 0.299 ratio.
For `AAAGAGAAACUAAAGCAACUAAUAGAGAAGAGGAUUGGCAAAGAGAAUUUCAUAGAGAAACUAGGAUUUAUUAGCAAACAUGAGUUAGUAUUCCAGAGCAUCUCAGAACCCCAGCCAAAC`, the bound/input enrichment was 2.78 ratio.
With `UGACAAGGGCACUGCAGGGCCAUGCCUUUCCUUGACAUACAGAAAAAGCUGGGCAUCAGCCUGGACCGGCACUUUAUGUUCCUAAGCGCAGAACAGCCCUAUAAGAAGGCUGGUCGAUGC` the bound/input enrichment was 0.0905 ratio.
For `CCCCACAACCAUUUGCAGGUCUGGAACCUGCAUUCUUUUUUUAAAAAACAUGUAUACAUUUUAGGGCUGUAGAUUUAUUUUCCUGGUUUUGUUUUUCAUUGCUGACUUUUGAGCACAGAA`, the bound/input enrichment was 1.53 ratio.
`AUGGAGAAGGAUUCUCUGCCCCGCUUUGUGCGCUCUGAAUUUUAUAAGGAGCUAAUCAAGUAGUCAUCUGGUCAGGCUUCCAAAAGUUGCCCUGUGAUAUUUCCUCCAUAAUAACCCGCA` has a bound/input enrichment of 0.251 ratio.
`GCUCUUGGGAAUGUAAUCAGCGCCUUGGGGGACAAGAGCAAGAGAGCCACCCAUGUCCCUUACAGAGACUCUAAGCUGACAAGACUCUUGCAGGAUUCCCUCGGGGGUAACAGCCAAACC` has a bound/input enrichment of 0.129 ratio.
With `CAGCGCCGAGGCCGCGGUUUCCCCCUGGGCCUCCCCAGCAGCAGCCAUGGGCAUCAAGUUUUUAGAAGUUAUUAAACCAUUCUGUGCAGUUCUACCAGAAAUUCAGAAACCGGAAAGGAA` the bound/input enrichment was 4.2 ratio.
`CCCCAAUACCAUUUGCAGGUCUGGAACCUGCAUUCUUUUUUUAAAAAACAUGUAUACAUUUUAGGGCUGUAGACUUAUUUUCCUGGUUUUGUUUUUCAUUGCUGACUUUUGAGCACAGAA` has a bound/input enrichment of 0.914 ratio.
`AAUUUCCUGUCAUACUUUGUAGCAAGACACAUCAGACUUACAGAGCAUUGGGCCUCUUUCUAGGUUUGUGUUAUUUCUCAGCUAUGGAUAUGAUCAAAUGAGAACACUGCUUAACUAAUG` gave a bound/input enrichment of 0.182 ratio.

Sample 4
Target: RNA binding protein fox-1 homolog 2, RRM domain, GST-SBP tag (RBFOX2, Homo sapiens, UniProt O43251-10, residues 100-194)
Technique: RNA Bind-n-Seq
Form: RNA
Matrix: in vitro
Tested at: 365 nM
Setting: natural RNA segment, single round, ends assumed
Relative to: no-protein control
Direction: higher = stronger binding
All sequences stand within: GGGAGUUCUACAGUCCGACGAUC … UGGAAUUCUCGGGUGCCAA
Residues (chain): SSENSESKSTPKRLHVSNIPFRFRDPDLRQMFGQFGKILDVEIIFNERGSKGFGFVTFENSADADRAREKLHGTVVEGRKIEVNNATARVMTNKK
Under “RBNS enrichment (R)”, `GAAUGUGUCUCAGAGAUUUCCUGCAAGAAACUCAGGUCCAAUCUGGACUAGAAUAAAGACCUCUGGGGCUGGAGAGAGAGCUCAGUGGUUAAGAGUACUGGCUGUUGGGG` is recorded as 1.38.
`CUUUAAUGGGAGAGUAAGAAAUGAGAAACAUAGAAAUCUAAGGCUGAAGCCAACACCAAAAGAGGGAGCACACCUGUUCCCUACCUCCUGGAAGUGGAGCCAAGUUUCAG` — result for “RBNS enrichment (R)”: 0.248.
`GAGCUGAGACUGGUUCCCUGAUGCUCCGUCAGCUUCCCUAUGUGGCUGGCUCAUUAUUUUCCUCAAAGCCUUCUGUCUUUCCUGUGCCUGCCUGUGACUCUUUGCACACU` — result for “RBNS enrichment (R)”: 1.57.
Under “RBNS enrichment (R)”, `GUAUCAGAGAAUGCUGGUAGCUUAAAAUUUUUAUUUUAGGACUUGUACUCUGAAUUUUCAGGAACCGUCAAAGGAGCAGCAGCAAAUUCACAUAUUUUCGACUUGAGAAA` is recorded as 0.325.
`UUCUCUGAGUAGUGGCUCCCCAGGUUUGUCCUUUGAGCUGAGGCAGGAGGCUCACCCAUUCUUCUGAAUAGGAACUGGGUGUUCCCACCCCCCAAGGACUGCAGGGCUUU` — result for “RBNS enrichment (R)”: 0.311.
`AGUCUUCUCAACCAAGCUUAACUCGAGUUGUCUUCUCAGCCCUCAAAAGGCUCUUGUACAAAAUGUAGAUUAAAAUUUGGGUGAUUGUUGAUUGACCUUUGCAUACCCUG` — result for “RBNS enrichment (R)”: 0.258.
For `CACCUCAUUACUGGUGGAUAAUUUAUGUGAUGUGGAUUGCUGGUGUCCAGCAUGACCCAUAAACAGGUCAGAAGAAUGAUGGAAUGUUUUAGAAUAAACUCCUGCUUAUA`, “RBNS enrichment (R)” read 1.33.
`CCACUUUAACACUAAUGCACUGACAGAUUCUAAAUAUUUUGUGAGAAAUGUUGAAAUGUUUAACCUGAUAGGCUUCUCUAUAAAAGAGUGUUUUGUUUUUUUCCCUGCAC`: “RBNS enrichment (R)” 1.72.
For `CUUUGUGUGUGAUAUUUUAAUCAAAAGUGGUUGAGUUGUUAACAGUGUUCUUUGAAAGAAUCUCUAAAAGGCUUAUAAAUGUUUGAAAUAUCACACAAAGGCUGAUUUCU`, “RBNS enrichment (R)” read 0.33.
For `ACUCUGCUACAUGGUACAGCUACCGCUAGACCUACAACUUAUGUACACAGUUGAUUUUGAUGUAUUUAUAAAAGCUUUUUUUUUCCCUAGAUUUGACAUUACUUCCUGUA`, “RBNS enrichment (R)” read 0.51.
`UCAACUGCUAGUGCUAACGCUGUCCUGUACAACCUAACUCACUGGCAAGAAUGCAGUGUUGGGCCUUUCAACCACUAGAACAAACUUUUUUCAAUUGACAGUUGCAGAAU`: “RBNS enrichment (R)” 0.265.
Under “RBNS enrichment (R)”, `CUUUUAAACACUAAAAUGUCUAAUUUAUACUUAAGGCUACAGAAGAGUAUUUAUGGGAAAGGCUGCCCAUGACCAGUGUGACUCAAAGCAAUGUGAUCUCCCUUGAUUCA` is recorded as 0.52.

Some of these lines once more (sample 1):
`CTTGATTTTGGTCTTTCTGTGTGCTAG` — result for “fitted relative affinity”: 0.47 z-score.
`TTAAGTATCGGTATCGGTTAGTGCTAG`: “fitted relative affinity” 5.65 z-score.
`GGCGATTTCAGTCTCGAGACGTGCTAG` — result for “fitted relative affinity”: 2.19 z-score.
Under “fitted relative affinity”, `GACGGCATCGGGACTGGGGACGTGCTA` is recorded as -1.06 z-score.
